Published values from different studies.

SMILES	test system	setting	Cmax
CN(CC(=O)N(Cc1ccc(C2CCCCC2)cc1)c1ccc(C(=O)O)cc1)S(=O)(=O)c1c(F)c(F)c(F)c(F)c1F	mouse, plasma	intravenous, 5 mg/kg	124 ng/mL
C[C@@](O)(C(F)F)[C@H](NC(=O)c1ccc(C#CC#CC2CC2)cc1)C(=O)NO	mouse, plasma	intraperitoneal, 40 mg/kg	17900 ng/mL
CC(C)[C@H]1NC(=O)C[C@H]2/C=C/CCSSC[C@@H](NC1=O)C(=O)N[C@H](Cc1cccc3ccccc13)C(=O)NCC(=O)O2	nude mouse, blood	intraperitoneal, 4 mg/kg	36.6 ng/mL
CS(C)(=O)=Nc1ccc(-c2ccc(-c3nc4cc(O[C@@H]5CO[C@H]6[C@@H]5OC[C@H]6O)[nH]c4cc3F)cc2)cc1	female C57BL/6 mouse, plasma	oral, 10 mg/kg	1560 ng/mL
CCCCCCCC(=O)NC[C@H](NC(=O)[C@H](CO)NC(=O)CN)C(=O)N[C@@H](Cc1ccccc1)C(=O)N[C@@H](CC(C)C)C(=O)N[C@@H](CO)C(=O)N1CCC[C@H]1C(=O)N[C@@H](CCC(=O)O)C(=O)N[C@@H](Cc1c[nH]cn1)C(=O)N[C@@H](CCC(N)=O)C(=O)N[C@@H](CCCNC(=N)N)C(=O)N[C@H](C(=O)N[C@@H](CCC(N)=O)C(=O)N[C@H](C(=O)N[C@@H](CCCNC(=N)N)C(=O)N1CCC[C@H]1C(=O)N1CCC[C@H]1C(=O)N[C@@H](Cc1c[nH]cn1)C(=O)N[C@@H](CCCCN)C(=O)N[C@@H](C)C(=O)N1CCC[C@H]1C(=O)N[C@@H](Cc1c[nH]cn1)C(=O)N[C@H](C(=O)N[C@H](C(=O)O)C(C)C)C(C)C)C(C)C)C(C)C	mouse, plasma	subcutaneous, 7.2 mg/kg	828 ng/mL
C/C(=N\OCCCN1CCCCC1)c1ccc(C(F)(F)F)cc1	mouse, plasma	oral, 10 mg/kg	200 ng/mL
CCCCCCCC(=O)OC[C@H](NC(=O)[C@H](CO)NC(=O)CN)C(=O)N[C@@H](Cc1ccccc1)C(=O)N[C@@H](CC(C)C)C(=O)N[C@@H](CO)C(=O)N1CCC[C@H]1C(=O)N[C@@H](CCC(=O)O)C(=O)N[C@@H](Cc1cnc[nH]1)C(=O)N[C@@H](CCC(N)=O)C(=O)N[C@@H](CCCNC(=N)N)C(=O)N[C@H](C(=O)N[C@@H](CCC(N)=O)C(=O)N[C@@H](CCC(N)=O)C(=O)N[C@@H](CCCNC(=N)N)C(=O)N[C@@H](CCCCN)C(=O)N[C@@H](CCC(=O)O)C(=O)N[C@@H](CO)C(=O)N[C@@H](CCCCN)C(=O)N[C@@H](CCCCN)C(=O)N1CCC[C@H]1C(=O)N1CCC[C@H]1C(=O)N[C@@H](C)C(=O)N[C@@H](CCCCN)C(=O)N[C@@H](CC(C)C)C(=O)N[C@@H](CCC(N)=O)C(=O)N1CCC[C@H]1C(=O)N[C@@H](CCCNC(=N)N)C(=O)O)C(C)C	mouse, plasma	intraperitoneal, 1.2 mg/kg	7.5 ng/mL
NC1CCN(C(=O)OC2CCCC3(C2)OOC2(O3)C3CC4CC(C3)CC2C4)CC1 (centres unmarked)	mouse, plasma	oral, 50 mg/kg, single dose	631 ng/mL
COc1ccc(F)cc1S(=O)(=O)Nc1cnc2c(c1)C(=O)NCCO2	male C57BL/6 mouse, plasma	oral, 1 mg/kg, single dose	176 ng/mL
CCCCCCCCCCCCCCCC(=O)NCCCC[C@H](NC(=O)[C@H](CCCNC(=N)N)NC(=O)[C@H](Cc1ccc(O)cc1)NC(=O)[C@H](CC(C)C)NC(=O)[C@H](CCCNC(=N)N)NC(=O)CNS(=O)(=O)c1ccc(N)cc1)C(N)=O	CD-1 mouse, plasma	intraperitoneal, 4 mg/kg, single dose	3460 ng/mL
O=c1cc(-c2ccccc2)oc2c(Br)c(O)c(O)c(O)c12	C57BL/6 mouse, plasma	oral, 150 mg/kg, single dose	1100 ng/mL

A few entries again:
SMILES	test system	setting	Cmax
O=c1cc(-c2ccccc2)oc2c(Br)c(O)c(O)c(O)c12	C57BL/6 mouse, plasma	oral, 150 mg/kg, single dose	1100 ng/mL
